Results of several laboratories.
± marks the error that the study gave.
PDE4D: 3',5'-cyclic-AMP phosphodiesterase 4D (PDE4D, Homo sapiens, UniProt Q08499)
Chain of UniProt Q08499 (whole entry, looked up): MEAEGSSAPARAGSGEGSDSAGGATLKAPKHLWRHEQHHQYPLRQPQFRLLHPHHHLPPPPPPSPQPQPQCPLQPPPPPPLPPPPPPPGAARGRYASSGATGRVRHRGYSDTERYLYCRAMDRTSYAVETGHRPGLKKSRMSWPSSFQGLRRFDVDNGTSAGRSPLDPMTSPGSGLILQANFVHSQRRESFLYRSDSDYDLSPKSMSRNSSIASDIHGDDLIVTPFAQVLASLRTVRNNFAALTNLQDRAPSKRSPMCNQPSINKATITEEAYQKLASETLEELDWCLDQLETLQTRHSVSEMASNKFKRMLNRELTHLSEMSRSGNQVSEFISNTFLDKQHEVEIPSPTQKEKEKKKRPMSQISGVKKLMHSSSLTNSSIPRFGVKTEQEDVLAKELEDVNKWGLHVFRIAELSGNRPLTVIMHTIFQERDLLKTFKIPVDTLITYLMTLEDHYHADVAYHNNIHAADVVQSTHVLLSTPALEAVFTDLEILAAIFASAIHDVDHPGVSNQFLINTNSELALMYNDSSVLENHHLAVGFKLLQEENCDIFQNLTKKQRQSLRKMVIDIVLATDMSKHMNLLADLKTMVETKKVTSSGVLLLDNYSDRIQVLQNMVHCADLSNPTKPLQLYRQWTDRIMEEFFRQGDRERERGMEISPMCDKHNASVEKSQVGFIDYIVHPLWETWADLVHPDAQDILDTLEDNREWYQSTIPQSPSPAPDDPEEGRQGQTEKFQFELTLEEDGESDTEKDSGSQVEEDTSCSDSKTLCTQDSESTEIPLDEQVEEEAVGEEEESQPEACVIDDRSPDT
Chain of UniProt P09884 (whole entry, looked up): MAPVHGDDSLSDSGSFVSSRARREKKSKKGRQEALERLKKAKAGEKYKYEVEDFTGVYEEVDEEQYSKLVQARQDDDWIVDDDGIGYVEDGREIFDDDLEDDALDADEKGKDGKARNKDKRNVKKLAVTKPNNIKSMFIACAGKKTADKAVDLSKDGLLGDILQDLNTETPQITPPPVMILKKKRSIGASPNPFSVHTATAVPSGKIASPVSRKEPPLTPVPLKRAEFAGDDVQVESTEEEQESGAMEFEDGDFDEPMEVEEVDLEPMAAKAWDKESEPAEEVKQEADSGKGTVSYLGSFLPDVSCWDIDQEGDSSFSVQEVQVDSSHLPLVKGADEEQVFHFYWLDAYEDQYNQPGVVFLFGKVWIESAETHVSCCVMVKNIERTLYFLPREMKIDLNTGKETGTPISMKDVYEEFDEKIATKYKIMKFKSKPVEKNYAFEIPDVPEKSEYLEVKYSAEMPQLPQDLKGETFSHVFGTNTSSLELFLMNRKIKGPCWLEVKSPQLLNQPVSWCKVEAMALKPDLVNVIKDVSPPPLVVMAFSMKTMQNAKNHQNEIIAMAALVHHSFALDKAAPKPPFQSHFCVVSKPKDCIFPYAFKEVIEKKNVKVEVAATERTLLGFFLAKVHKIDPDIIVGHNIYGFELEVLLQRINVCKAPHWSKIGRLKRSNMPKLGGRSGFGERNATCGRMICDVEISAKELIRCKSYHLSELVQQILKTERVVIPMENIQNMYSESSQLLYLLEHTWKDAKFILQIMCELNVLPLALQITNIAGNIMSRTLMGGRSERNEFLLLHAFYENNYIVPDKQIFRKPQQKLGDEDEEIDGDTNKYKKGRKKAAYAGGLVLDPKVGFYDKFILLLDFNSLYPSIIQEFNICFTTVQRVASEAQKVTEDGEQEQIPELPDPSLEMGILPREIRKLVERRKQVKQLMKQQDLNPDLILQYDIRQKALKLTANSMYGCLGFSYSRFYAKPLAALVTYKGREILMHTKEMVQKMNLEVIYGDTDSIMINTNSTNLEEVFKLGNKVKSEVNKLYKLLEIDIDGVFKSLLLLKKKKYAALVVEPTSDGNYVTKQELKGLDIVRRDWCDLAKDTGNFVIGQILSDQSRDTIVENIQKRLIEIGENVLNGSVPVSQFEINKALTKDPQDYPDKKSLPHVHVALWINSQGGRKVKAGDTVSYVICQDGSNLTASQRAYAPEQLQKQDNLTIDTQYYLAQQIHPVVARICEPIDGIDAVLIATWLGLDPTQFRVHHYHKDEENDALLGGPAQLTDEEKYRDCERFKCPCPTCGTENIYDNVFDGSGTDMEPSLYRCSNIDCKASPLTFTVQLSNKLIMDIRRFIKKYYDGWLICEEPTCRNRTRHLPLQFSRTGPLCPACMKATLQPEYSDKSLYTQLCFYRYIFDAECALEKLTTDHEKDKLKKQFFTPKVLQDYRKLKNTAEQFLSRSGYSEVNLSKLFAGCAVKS
Chain of UniProt Q9Y253 (whole entry, looked up): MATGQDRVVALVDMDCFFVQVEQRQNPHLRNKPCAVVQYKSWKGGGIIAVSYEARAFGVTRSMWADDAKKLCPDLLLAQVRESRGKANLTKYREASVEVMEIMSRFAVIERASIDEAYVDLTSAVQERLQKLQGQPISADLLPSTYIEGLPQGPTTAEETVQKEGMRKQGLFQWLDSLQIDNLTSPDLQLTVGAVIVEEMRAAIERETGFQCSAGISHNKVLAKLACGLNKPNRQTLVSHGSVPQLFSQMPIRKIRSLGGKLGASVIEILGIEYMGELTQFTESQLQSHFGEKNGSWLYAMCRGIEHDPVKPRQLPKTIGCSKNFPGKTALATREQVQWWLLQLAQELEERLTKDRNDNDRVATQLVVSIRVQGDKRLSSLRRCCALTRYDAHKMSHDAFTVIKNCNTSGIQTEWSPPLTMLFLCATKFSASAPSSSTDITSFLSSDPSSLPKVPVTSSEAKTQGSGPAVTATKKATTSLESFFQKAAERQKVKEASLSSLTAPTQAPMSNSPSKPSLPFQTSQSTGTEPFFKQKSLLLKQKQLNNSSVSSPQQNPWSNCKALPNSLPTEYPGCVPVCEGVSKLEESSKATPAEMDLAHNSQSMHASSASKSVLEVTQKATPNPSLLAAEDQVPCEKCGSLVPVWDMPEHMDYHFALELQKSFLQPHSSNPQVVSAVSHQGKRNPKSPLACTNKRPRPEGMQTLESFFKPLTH
Chain of UniProt P45984 (whole entry, looked up): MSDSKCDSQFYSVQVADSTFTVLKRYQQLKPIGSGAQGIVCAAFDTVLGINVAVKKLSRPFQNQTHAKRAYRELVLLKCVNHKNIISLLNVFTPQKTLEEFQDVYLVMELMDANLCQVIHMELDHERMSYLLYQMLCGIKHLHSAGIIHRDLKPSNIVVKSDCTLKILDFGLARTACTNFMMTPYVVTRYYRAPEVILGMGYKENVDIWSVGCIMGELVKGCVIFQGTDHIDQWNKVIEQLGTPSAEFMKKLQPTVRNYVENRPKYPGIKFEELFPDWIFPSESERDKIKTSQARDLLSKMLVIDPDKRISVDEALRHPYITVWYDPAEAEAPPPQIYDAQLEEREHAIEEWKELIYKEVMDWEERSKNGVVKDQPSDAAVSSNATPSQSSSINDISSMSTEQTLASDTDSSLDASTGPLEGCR
Chain of UniProt P42575 (whole entry, looked up): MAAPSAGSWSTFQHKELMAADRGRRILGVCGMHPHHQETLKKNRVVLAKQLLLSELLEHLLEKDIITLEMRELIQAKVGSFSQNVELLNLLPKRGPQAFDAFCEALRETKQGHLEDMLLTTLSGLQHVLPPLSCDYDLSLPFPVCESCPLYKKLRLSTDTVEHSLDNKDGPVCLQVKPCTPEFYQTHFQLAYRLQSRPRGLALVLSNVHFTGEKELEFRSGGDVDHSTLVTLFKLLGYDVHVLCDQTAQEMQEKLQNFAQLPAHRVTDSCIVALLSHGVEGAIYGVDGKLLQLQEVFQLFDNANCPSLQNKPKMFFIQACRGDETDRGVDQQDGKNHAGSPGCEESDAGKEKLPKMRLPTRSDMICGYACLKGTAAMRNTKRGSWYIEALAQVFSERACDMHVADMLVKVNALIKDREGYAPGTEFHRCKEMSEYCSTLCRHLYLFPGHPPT
Chain of UniProt Q99873 (whole entry, looked up): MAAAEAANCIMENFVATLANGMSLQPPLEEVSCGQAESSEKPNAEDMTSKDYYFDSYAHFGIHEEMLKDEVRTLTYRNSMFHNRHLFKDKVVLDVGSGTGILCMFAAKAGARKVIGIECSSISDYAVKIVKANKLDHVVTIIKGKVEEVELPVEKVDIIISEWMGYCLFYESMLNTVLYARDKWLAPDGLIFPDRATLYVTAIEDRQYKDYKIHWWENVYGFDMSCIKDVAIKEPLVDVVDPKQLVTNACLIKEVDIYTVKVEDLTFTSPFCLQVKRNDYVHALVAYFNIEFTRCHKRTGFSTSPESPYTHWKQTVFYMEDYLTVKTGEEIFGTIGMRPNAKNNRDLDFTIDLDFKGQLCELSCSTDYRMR
Chain of UniProt Q01650 (whole entry, looked up): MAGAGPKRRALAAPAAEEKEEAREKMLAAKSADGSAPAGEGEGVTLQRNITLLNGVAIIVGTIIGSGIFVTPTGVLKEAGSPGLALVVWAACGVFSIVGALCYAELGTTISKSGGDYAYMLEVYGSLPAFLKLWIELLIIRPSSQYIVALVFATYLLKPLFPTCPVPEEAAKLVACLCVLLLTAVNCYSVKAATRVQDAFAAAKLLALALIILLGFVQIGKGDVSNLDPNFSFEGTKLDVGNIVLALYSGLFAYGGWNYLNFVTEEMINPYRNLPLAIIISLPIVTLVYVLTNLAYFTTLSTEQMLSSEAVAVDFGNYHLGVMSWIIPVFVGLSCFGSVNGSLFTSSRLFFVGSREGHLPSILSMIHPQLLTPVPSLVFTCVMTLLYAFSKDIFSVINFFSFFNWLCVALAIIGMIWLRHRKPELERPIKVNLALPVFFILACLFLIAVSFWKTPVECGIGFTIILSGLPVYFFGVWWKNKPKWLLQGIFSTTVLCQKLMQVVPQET
Chain of UniProt Q04760 (whole entry, looked up): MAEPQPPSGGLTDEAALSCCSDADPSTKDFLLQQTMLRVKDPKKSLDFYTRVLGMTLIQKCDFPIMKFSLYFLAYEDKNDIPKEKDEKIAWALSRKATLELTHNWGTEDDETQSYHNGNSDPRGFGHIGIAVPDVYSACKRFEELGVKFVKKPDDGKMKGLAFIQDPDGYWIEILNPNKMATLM

SMILES | target | assay | test system | setting | IC50 [µM]
O=C(O[C@@H]1Cc2c(O)cc(O)cc2O[C@@H]1c1ccc(O)c(O)c1)c1ccc(O)cc1 | maltase, rat | enzyme activity, inhibitor | rat intestinal brush border vesicles | – | 61.8
COCCCN1CCc2c(Cc3ccc(Cl)cc3)[nH]c3c(OC(F)F)ccc(c23)C1=O | PDE4D | enzyme activity, inhibitor | – | – | 1.9
COc1cccc(C2C(C(=O)Nc3cccnc3)=C(C)Nc3nc(SCc4ccncc4)nn32)c1 (stereo not drawn) | MTOR (Homo sapiens, UniProt P42345) | enzyme activity, inhibitor, TR-FRET | – | – | 1.56
CCCCCCCCCCCCCC(=S)NCCCC[C@H](NC(=O)CNC(=O)CN)C(=O)NCC(=O)O | SIRT2 (Homo sapiens, UniProt Q8IXJ6) | – | – | – | 0.7
N=C(NCCCC(N)C(N)=O)NCCSCC1OC(n2cnc3c(N)ncnc32)C(O)C1O (stereo not drawn) | PRMT1 (Homo sapiens, UniProt Q99873) | enzyme activity, inhibitor, fluorescence | – | – | 16
O=C1C[C@@H](c2ccc(O)cc2)Oc2cc(O)ccc21 | Prothrombin (F2, Homo sapiens, UniProt P00734) | enzyme activity, inhibitor, fluorescence | – | with preincubation | > 100
Oc1ccc(/N=N/c2ccccc2)c2cccnc12 | GLO1 (Homo sapiens, UniProt Q04760) | enzyme activity, inhibitor | – | – | 8.81
CN(C)c1ccc2cc(S(=O)(=O)N3CC3C(N)=O)ccc2c1 (stereo not drawn) | PDIA3 (Homo sapiens, UniProt P30101) | enzyme activity, inhibitor, absorbance | – | pH 7.6 | 130
CC(C)C[C@@H](NC(=O)[C@@H](Cc1ccccc1)NC(=O)[C@H]1CCCN1C(=O)[C@@H](CCC(N)=O)NC(=O)[C@H](NC(=O)[C@H]1CCCN1C(=O)[C@@H](CCCNC(=N)N)NC(=O)[C@@H](CO)NC(=O)[C@@H](CCC(N)=O)NC(=O)[C@@H](CC(=O)O)NC(=O)[C@H](N)[C@H](C)O)C(C)C)C(=O)N[C@H](CC(N)=O)C(=O)N[C@H](CC(C)C)C(=O)N[C@@H](C(=O)N[C@@H](C(=O)N1CCC[C@@H]1C(=O)N[C@H](CCCNC(=N)N)C(=O)N[C@H](CCCCN)C(=O)N1CCC[C@@H]1C(=O)N[C@H](CCCNC(=N)N)C(N)=O)[C@H](C)O)[C@H](C)O | MAPK9 (Homo sapiens, UniProt P45984) | kinase activity, inhibitor, radiometric | – | pH 7.5, 30 °C, added: GST-c-Jun substrate | 1500 ± 109
COC(OC)c1ccc(-c2ccc(O)cc2)c(C(=C2C=CC(=O)C=C2)c2ccc(O)cc2)c1C#Cc1ccc(O)cc1 | PDE4D | enzyme activity, inhibitor, fluorescence | – | – | > 10
CC(C)[C@H](NC(=O)c1ccc2ccccc2n1)C(=O)N[C@@H](CC(=O)O)C(=O)N[C@H](C(=O)N[C@@H](C)C(=O)N[C@@H](CC(=O)O)C(=O)COc1c(F)cccc1F)C(C)C | Caspase-2 (Homo sapiens, UniProt P42575) | enzyme activity, inhibitor, absorbance | – | – | 0.0074
O=c1[nH]c(=O)c2ncn(CCOCP(=O)(O)OP(=O)(O)OP(=O)(O)O)c2[nH]1 | POLA1 (Homo sapiens, UniProt P09884) | enzyme activity, inhibitor, radiometric | – | – | > 100
Cc1cc(Nc2cc(CN(C)C)cc(NC(=O)c3cccc(Nc4ccnc5ccccc45)c3)c2)nc(N)n1 | DNA polymerase eta (POLH, Homo sapiens, UniProt Q9Y253) | nucleotide incorporation, inhibitor | – | added: 50 µM dNTP | 7.5
OC[C@@H]1NC[C@H](O)[C@@H]1O | Golgi alpha-mannosidase IIb (Drosophila melanogaster, UniProt Q9VF33) | – | – | pH 6.0, 0.5 mM CoCl2, added: 2 mM pNP-Man | 270
N[C@@H](Cc1c[nH]c2ccc(OCc3cccc(-c4ccco4)c3)cc12)C(=O)O | SLC7A5 (Homo sapiens, UniProt Q01650) | transporter uptake, inhibitor, radiometric | – | – | 20

For quick reference, copied from above:
SMILES | target | assay | test system | setting | IC50 [µM]
CCCCCCCCCCCCCC(=S)NCCCC[C@H](NC(=O)CNC(=O)CN)C(=O)NCC(=O)O | SIRT2 (Homo sapiens, UniProt Q8IXJ6) | – | – | – | 0.7
Oc1ccc(/N=N/c2ccccc2)c2cccnc12 | GLO1 (Homo sapiens, UniProt Q04760) | enzyme activity, inhibitor | – | – | 8.81
